Published values gathered from unrelated publications.
Each line is one published result; not all experiments were run side by side. “And” joins repeats or separate records; there may be more than shown.
Target: Maternal embryonic leucine zipper kinase (MELK, Homo sapiens, UniProt Q14680)
Sequence of UniProt Q14680 (whole entry, looked up): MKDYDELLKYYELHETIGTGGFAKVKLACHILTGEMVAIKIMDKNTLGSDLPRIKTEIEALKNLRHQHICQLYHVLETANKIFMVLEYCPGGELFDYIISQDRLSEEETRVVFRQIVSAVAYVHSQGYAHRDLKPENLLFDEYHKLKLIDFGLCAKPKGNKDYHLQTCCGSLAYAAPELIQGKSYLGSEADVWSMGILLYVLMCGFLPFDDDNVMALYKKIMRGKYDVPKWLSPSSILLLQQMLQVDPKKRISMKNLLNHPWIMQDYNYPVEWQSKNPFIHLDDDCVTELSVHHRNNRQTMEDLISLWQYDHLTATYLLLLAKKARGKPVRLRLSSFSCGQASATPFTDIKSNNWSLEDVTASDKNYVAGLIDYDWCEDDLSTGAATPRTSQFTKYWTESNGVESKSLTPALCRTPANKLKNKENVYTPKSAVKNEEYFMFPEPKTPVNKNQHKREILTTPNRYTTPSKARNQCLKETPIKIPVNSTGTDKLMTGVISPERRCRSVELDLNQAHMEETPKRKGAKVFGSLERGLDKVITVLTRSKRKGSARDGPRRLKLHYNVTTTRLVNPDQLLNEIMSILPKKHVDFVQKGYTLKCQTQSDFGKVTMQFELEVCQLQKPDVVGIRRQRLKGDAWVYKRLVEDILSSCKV

SMILES	test	test system	conditions	how to read	endpoint	result
CN1CC[C@@H](COc2cnc(C#N)cc2-c2ccn3nc(NC(=O)C4CC4)cc3c2)C1	enzyme activity, inhibitor	–	1 µM	–	inhibition	3%
COCC12C(=O)NC3C4(C(OC)CC1O)C1CC5(O)C(OC)C(O)C(OC(C)=O)(C1C5OC(=O)c1ccccc1)C3(O)C(OC)C24 (centres unmarked)	kinase activity, inhibitor, ProQinase kinase profiling	–	25 µM	reference: control	remaining activity	96% and 92%
CNC1C[S+]2CC[S+]3CC[S+](C1)[Ru-4]321([N]=C=S)[n]2c3ccc(OC)cc3c3c4c(c5cc(F)c[n+]1c5c32)C(=O)NC4=O (centres unmarked)	KinomeScan	–	0.1 µM	reference: untreated	remaining binding	29%
Cc1cccc(-c2ccc3nc(NC(=O)C4CCCCC4)nn3c2)c1	enzyme activity, Dundee kinase panel	–	10 µM	–	remaining activity	71%
CC(C)=CC1OC(C)(C)C2C=C3C(=O)C(Cl)=CC(O)C3C3C(O)C4OC4C(=O)C132 (centres unmarked)	cell-free assay, competition with immobilised ligand	–	10 µM	–	remaining binding	97%
COc1cc(Nc2nccc(-c3cnn4nc(OC)ccc34)n2)cc(C(F)(F)F)c1	binding, competition with immobilised ligand	–	1 µM	–	remaining binding	100%
Nc1ncc2c(n1)-c1c([nH]c3ccc(C4=CCOCC4)cc13)CCC2	binding, competition with immobilised ligand	–	1 µM	–	remaining binding	100%
CNC(=O)C[C@H](Cc1ccc(C#N)cc1)NC(=O)c1cc(-c2ccc(CN[C@H](C)c3ccc(C)cc3)o2)ccc1Cl	enzyme activity, inhibitor	–	1 µM	–	activity vs control	107%
O=C(Cc1ccc(OCc2ccccc2)cc1)NC1(C(=O)O)CCN(C(=O)c2ccc(-c3cccc(Cl)c3)cc2)CC1	enzyme activity, inhibitor	–	10 µM	–	activity vs control	102%
Cc1cnc2nc1Nc1cccc(c1)COC/C=C/COCc1cc(ccc1OCCN1CCOCC1)N2	binding	–	0.1 µM	–	remaining binding	93%
CCN1CCN(Cc2ccc(C(=O)Nc3ccc(C)c(NCc4cnc5[nH]ccc5c4OC)c3)cc2C(F)(F)F)CC1	binding, competition with immobilised ligand	–	1 µM	–	remaining binding	73%
Nc1nc(Nc2ccccc2)sc1C(=O)c1ccccc1	enzyme activity, inhibitor	–	10 µM	–	remaining activity	34%
Cc1cccc(O[C@H]2CCC[C@@H](C(C)CNCc3ccncc3)C2)c1 (relative stereo)	enzyme activity, inhibitor	–	1 µM	–	inhibition	3%
Cc1cccc(-c2ccc3nc(NC(=O)C4CCOCC4)nn3c2)c1	enzyme activity, Dundee kinase panel	–	10 µM	–	remaining activity	69%
C=CC(=O)Nc1cc(-c2nn(C3CCN(CCNC(=O)[C@H](C)CCC45CC6CC(CC(C6)C4)C5)CC3)c3ncnc(N)c23)ccc1Oc1ccccc1	inhibitor, KiNativ profiling	biochemical	2 µM	–	inhibition	-14.2%
COc1ccc(NC(=O)Nc2ccc3c(c2)C(=O)N(C(C)CO)CC(C)C(CN(C)Cc2ccc4c(c2)OCO4)O3)cc1 (centres unmarked)	kinase activity, KinaseProfiler	–	0.03 µM, species human	reference: control	remaining activity	98%
NC(=O)C[C@H]1CCc2sc3ncnc(O[C@H]4CC[C@H](N5CCOCC5)CC4)c3c21	enzyme activity, inhibitor	–	10 µM	–	inhibition	9%
C=CC(=O)N1CCc2ccc(-n3c(=O)ccc4cnc5ccc(-c6cnn(C)c6)cc5c43)cc21	KINOMEscan	–	1 µM	reference: DMSO control	remaining binding	100%
O=C(Nc1ccc(Oc2ncnc3[nH]cc(-c4ccccc4)c23)c(F)c1)c1c2n(n(-c3cc(F)ccc3F)c1=O)CCCC2	enzyme activity, inhibitor	–	0.5 µM	–	inhibition	10%
C=CC(=O)Nc1cccc(-c2cnc3[nH]cc(C(=O)NC(C)(C)C)c3n2)c1	kinase activity	–	0.1 µM	–	inhibition	11%
